Measurements of several laboratories.
Compare with care: the assays were run in different laboratories. Values joined by “and” are separate records of one study, mostly repeats; a detail may differ. ± marks the error that the study gave.
OPRD1: Delta-type opioid receptor (OPRD1, Homo sapiens, UniProt P41143)
Slc6a4: Sodium-dependent serotonin transporter (Slc6a4, Rattus norvegicus, UniProt P31652)
Oprk1: Kappa-type opioid receptor (Oprk1, Mus musculus, UniProt P33534)
NOX5: NADPH oxidase 5 (NOX5, Homo sapiens, UniProt Q96PH1)
Or2c1: Or2c1 (Mus musculus, UniProt P23275)
OPRK1: Kappa-type opioid receptor (OPRK1, Homo sapiens, UniProt P41145)
Slc6a3: Sodium-dependent dopamine transporter (Slc6a3, Rattus norvegicus, UniProt P23977)
OPRM1: Mu-type opioid receptor (OPRM1, Homo sapiens, UniProt P35372)

Sequences of proteins named here, by UniProt entry; tags and fusion partners are left off. Residues count along the entry.
UniProt P31652, whole entry: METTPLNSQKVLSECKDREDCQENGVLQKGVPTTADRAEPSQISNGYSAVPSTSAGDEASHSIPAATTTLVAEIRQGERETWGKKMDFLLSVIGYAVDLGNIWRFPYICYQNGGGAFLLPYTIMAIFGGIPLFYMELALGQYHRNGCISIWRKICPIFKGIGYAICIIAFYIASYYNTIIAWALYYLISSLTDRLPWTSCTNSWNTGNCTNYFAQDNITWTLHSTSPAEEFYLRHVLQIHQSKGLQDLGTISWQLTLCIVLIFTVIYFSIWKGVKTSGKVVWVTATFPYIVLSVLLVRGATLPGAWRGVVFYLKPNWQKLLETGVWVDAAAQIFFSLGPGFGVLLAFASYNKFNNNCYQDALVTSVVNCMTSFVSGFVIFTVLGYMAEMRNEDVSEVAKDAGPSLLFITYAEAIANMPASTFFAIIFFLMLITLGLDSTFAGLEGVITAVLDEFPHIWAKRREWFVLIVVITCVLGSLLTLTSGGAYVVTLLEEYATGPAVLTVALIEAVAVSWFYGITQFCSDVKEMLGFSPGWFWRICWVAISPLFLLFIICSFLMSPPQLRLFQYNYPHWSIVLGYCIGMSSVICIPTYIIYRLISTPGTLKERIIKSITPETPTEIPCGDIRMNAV
UniProt Q96PH1, 1-719 isoform 4: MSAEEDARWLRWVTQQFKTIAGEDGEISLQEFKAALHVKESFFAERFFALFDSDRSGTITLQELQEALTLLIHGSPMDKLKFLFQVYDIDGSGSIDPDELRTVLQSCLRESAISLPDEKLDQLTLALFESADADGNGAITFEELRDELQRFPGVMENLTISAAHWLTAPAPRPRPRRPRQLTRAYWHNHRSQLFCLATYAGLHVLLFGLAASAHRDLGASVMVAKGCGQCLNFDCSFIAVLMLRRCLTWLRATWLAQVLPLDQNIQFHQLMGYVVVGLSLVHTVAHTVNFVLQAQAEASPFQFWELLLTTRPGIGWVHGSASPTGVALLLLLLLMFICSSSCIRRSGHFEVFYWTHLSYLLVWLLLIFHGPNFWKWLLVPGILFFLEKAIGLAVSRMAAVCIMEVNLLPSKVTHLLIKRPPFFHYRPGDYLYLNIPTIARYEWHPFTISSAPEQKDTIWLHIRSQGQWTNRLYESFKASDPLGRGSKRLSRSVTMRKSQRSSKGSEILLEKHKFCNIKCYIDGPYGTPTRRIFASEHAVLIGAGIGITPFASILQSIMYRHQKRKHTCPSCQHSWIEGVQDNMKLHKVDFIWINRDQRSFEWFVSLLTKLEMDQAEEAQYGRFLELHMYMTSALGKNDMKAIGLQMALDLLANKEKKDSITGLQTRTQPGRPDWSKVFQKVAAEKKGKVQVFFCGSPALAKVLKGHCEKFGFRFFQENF
UniProt P23275, whole entry: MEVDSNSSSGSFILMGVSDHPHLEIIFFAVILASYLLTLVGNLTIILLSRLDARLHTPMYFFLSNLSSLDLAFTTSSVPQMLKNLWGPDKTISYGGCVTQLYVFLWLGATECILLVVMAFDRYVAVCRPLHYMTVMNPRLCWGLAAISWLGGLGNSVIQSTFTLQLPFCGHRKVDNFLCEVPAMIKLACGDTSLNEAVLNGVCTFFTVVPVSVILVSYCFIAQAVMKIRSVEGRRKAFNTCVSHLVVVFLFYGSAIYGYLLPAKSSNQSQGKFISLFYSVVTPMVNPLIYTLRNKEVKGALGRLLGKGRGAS
UniProt P41145, whole entry: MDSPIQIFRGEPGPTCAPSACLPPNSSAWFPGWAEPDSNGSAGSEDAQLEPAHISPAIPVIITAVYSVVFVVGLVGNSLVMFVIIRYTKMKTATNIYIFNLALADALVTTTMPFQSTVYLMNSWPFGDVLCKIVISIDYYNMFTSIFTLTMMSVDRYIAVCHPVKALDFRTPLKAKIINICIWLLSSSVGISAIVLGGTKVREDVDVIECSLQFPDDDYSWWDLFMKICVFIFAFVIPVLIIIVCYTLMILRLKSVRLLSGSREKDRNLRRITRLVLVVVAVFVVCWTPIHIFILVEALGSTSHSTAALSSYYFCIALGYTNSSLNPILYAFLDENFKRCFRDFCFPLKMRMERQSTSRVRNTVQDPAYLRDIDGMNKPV
UniProt P23977, whole entry: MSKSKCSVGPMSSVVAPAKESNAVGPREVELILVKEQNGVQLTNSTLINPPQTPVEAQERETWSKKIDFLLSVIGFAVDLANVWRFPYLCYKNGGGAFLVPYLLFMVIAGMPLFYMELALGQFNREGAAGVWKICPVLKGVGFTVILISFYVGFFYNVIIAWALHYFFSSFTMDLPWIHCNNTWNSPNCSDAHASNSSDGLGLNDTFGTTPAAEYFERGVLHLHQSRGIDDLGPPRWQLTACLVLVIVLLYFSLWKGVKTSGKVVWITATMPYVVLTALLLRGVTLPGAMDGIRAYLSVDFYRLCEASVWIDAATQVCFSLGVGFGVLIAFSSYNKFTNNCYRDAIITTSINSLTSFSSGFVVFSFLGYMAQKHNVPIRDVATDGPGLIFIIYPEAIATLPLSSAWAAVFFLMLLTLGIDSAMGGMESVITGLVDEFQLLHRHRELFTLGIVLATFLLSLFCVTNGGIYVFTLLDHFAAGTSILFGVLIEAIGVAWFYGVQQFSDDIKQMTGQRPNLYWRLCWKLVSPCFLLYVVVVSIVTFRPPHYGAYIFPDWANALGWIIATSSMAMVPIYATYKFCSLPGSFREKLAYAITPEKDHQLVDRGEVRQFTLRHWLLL
UniProt P35372, whole entry: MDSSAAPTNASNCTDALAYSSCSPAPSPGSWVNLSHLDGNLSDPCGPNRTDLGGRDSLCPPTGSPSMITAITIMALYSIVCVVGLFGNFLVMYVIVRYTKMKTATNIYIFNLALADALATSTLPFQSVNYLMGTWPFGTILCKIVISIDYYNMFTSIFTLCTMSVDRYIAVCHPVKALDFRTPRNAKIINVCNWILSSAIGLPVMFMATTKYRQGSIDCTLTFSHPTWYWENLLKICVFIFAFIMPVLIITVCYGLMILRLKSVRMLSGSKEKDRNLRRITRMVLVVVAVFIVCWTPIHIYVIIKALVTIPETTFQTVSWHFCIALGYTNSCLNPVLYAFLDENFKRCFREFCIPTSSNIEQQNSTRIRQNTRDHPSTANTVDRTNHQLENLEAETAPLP
UniProt Q9UM73, whole entry F1174L, looked up: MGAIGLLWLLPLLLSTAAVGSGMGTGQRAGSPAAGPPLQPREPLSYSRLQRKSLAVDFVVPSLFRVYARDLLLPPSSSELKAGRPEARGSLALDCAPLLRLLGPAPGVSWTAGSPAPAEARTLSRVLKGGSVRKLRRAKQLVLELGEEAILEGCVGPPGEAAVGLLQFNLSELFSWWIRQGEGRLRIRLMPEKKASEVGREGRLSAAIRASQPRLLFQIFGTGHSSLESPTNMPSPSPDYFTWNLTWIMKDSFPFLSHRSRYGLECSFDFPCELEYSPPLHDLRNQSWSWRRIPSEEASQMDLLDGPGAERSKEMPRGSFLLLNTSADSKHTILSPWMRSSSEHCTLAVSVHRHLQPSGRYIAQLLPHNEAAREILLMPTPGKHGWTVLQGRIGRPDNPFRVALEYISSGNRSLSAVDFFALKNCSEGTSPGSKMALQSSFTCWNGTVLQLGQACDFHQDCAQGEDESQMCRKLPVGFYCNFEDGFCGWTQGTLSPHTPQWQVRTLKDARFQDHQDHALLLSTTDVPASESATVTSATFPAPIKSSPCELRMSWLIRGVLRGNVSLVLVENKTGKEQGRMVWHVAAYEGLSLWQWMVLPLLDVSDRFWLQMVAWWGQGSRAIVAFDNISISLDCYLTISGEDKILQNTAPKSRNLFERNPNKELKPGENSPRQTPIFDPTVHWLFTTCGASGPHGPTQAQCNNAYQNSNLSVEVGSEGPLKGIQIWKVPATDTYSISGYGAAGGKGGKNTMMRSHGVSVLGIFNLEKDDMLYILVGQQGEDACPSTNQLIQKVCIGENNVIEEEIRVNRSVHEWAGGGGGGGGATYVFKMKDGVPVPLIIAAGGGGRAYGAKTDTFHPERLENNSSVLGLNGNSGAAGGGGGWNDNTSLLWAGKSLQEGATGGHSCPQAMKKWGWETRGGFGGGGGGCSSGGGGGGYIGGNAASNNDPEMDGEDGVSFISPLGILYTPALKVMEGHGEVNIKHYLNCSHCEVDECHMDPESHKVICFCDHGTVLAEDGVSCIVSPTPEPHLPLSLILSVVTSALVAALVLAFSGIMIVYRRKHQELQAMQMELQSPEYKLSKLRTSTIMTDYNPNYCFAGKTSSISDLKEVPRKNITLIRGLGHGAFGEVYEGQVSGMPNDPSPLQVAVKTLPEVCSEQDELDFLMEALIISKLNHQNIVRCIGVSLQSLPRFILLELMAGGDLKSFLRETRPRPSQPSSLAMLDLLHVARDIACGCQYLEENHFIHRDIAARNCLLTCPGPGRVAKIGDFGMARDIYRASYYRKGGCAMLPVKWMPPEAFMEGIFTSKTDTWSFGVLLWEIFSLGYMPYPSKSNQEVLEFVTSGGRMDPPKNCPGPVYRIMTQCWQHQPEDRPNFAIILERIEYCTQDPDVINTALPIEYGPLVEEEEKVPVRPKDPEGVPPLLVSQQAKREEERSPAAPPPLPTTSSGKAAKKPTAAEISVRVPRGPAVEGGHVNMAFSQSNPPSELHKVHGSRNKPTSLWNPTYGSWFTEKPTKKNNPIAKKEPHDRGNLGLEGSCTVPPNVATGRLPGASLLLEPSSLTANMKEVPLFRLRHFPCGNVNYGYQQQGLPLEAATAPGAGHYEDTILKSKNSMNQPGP
UniProt P51955, whole entry: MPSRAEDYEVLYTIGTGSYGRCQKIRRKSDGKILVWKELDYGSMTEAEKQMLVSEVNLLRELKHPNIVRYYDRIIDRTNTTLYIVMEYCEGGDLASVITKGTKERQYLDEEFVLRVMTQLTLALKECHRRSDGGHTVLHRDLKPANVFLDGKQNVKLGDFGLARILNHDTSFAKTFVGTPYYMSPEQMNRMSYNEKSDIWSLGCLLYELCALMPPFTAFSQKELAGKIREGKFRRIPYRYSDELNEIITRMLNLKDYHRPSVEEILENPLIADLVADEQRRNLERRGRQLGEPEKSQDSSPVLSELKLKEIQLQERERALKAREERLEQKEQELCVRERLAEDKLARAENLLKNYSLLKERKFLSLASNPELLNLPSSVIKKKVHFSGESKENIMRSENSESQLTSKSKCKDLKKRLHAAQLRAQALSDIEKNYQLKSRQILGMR
UniProt B0JCV9, 1-390: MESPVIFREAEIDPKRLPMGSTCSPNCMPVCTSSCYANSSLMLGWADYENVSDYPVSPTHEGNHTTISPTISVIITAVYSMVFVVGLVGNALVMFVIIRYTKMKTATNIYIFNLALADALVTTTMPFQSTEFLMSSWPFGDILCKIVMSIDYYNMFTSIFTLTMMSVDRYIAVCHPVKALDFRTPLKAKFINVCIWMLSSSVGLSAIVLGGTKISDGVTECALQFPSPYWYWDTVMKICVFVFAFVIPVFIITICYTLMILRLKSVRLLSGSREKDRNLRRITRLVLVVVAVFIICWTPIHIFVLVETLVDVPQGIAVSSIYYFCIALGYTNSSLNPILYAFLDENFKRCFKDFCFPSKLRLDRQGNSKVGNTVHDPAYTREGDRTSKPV
UniProt Q9GZN0, whole entry: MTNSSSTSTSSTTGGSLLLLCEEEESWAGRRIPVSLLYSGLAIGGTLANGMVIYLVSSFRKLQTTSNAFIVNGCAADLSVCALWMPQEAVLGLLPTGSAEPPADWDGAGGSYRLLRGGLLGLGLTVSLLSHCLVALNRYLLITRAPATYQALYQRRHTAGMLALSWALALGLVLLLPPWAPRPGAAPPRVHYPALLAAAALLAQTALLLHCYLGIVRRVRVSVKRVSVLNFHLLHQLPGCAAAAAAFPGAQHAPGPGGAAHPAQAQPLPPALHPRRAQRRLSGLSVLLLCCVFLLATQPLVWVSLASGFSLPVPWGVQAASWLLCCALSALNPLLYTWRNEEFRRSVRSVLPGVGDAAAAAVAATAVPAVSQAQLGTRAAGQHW
UniProt Q9NPH5, whole entry: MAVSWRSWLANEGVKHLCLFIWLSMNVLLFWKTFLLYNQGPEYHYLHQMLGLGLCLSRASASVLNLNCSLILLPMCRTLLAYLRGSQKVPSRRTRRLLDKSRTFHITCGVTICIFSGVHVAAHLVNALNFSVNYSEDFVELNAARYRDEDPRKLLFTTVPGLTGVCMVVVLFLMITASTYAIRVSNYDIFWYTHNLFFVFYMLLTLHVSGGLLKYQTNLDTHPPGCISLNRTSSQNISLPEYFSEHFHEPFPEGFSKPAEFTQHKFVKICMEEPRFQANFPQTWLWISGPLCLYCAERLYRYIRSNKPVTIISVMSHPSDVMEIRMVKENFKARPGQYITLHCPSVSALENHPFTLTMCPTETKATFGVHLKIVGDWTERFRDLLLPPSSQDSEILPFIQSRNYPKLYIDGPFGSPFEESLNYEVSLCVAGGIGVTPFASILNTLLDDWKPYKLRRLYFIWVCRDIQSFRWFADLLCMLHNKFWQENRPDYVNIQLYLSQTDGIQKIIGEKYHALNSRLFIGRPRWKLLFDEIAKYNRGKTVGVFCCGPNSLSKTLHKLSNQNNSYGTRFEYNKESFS

`CO[C@]12CC[C@@]3(C[C@@H]1[C@](C)(O)c1ccccc1)[C@H]1Cc4ccc(O)c5c4[C@@]3(CCN1CC1CC1)[C@H]2O5` has an EC50 of 2.66 ± 0.34 nM (OPRD1; G-protein activation, agonist).
`CCC(N)Cc1c[nH]c2ccc(Cl)cc12` (stereo not drawn) has an EC50 of 33.2 ± 3.6 nM (Slc6a4; serotonin release, releaser; rat brain synaptosomes).
For `ethoxymethyl salvinorin B`, the EC50 was 0.53 nM (Oprk1; agonist; mouse receptor).
`CO[C@]12C=C[C@@]3(C[C@@H]1[C@H](O)c1ccccc1)[C@H]1Cc4ccc(O)c5c4[C@@]3(CCN1CC1CC1)[C@H]2O5` has an EC50 of 1.76 ± 0.46 nM (OPRD1; G-protein activation, agonist).
With `c1ccc(Cn2nnc3c(Sc4nc5ccccc5[nH]4)ncnc32)cc1` the EC50 was over 15000 nM (NOX5; enzyme activity, Amplex Red; NOX5-overexpressing cells).
For `NCCc1c[nH]c2cccc(F)c12`, the EC50 was 108 ± 9 nM (Slc6a4; serotonin release, releaser; rat brain synaptosomes).
`CCCCCCC=O` has an EC50 of 19000 ± 6000 nM (Or2c1; ion current, agonist, two-electrode voltage clamp; Xenopus oocytes; 15 s).
With `CC[C@](O)([C@H]1C[C@@]23CC[C@]1(OC)[C@@H]1Oc4c(O)ccc5c4[C@@]12CCN(CC1CC1)[C@@H]3C5)C(C)(C)C` the EC50 was 183 ± 9.4 nM (OPRK1; G-protein activation, agonist).
For `NCCc1c[nH]c2c(Cl)cccc12`, the EC50 was 8 nM and 8.03 nM (Slc6a4; serotonin release, releaser; rat brain synaptosomes).
With `Brc1ccc2nc(Sc3ncnc4c3nnn4Cc3ccccc3)oc2c1` the EC50 was 2500 ± 300 nM (NOX5; enzyme activity, Amplex Red; NOX5-overexpressing cells).
For `NCCc1c[nH]c2ccccc12`, the EC50 was 32.6 ± 2.6 nM (Slc6a4; serotonin release, releaser; rat brain synaptosomes).
`NCCc1c[nH]c2ccc(Br)cc12` has an EC50 of 75 ± 7.7 nM (Slc6a4; serotonin release, releaser; rat brain synaptosomes).
For `CN(C(=O)Cc1cccc2occc12)[C@H]1CC[C@@]2(CCCO2)C[C@@H]1N1CCCC1`, the EC50 was 4 nM (Oprk1; receptor internalization, agonist, on-cell western; N2a; 1 h, mouse receptor).
`Cc1cccc2c(CCN)c[nH]c12` gave an EC50 of 23.7 ± 1.9 nM (Slc6a4; serotonin release, releaser; rat brain synaptosomes).
`CCN1CCN(Cc2ccc(NC(=O)c3ccc(C)c(/C=C/c4cnc5[nH]ccc5c4OC)c3)cc2C(F)(F)F)CC1`: “log2 fold change” 0.217 (ALK tyrosine kinase receptor (ALK, Homo sapiens, UniProt Q9UM73, F1174L); inhibitor, cell-based kinome screen; 5 µM; reference: no inhibitor).
With `CN(C(=O)Cc1ccc(Cl)c(Cl)c1)C1CCC2(CCCO2)CC1N1CCCC1` (stereo not drawn) the EC50 was 12 nM (OPRK1; agonist; human receptor).
For `Fc1ccc2nc(Sc3ncnc4c3nnn4Cc3ccccc3)oc2c1`, the EC50 was 5100 ± 800 nM (NOX5; enzyme activity, Amplex Red; NOX5-overexpressing cells).
For `CC#C/C(=N\OC[C@H]1COCCN1)c1ccc2ncnc(Nc3ccc(OCc4cccc(F)c4)c(Cl)c3)c2c1`, the inhibition was 22.1% (Serine/threonine-protein kinase Nek2 (NEK2, Homo sapiens, UniProt P51955); kinase activity; 10 µM).
With `COC(=O)[C@@H]1C[C@H](OC(C)=O)C(=O)[C@H]2[C@@]1(C)CC[C@H]1C(=O)O[C@H](c3ccoc3)C[C@]21C` the EC50 was 69 nM (Kappa-type opioid receptor (Lithobates pipiens, UniProt B0JCV9); cAMP production, agonist, GloSensor; HEK-293T; together with: isoproterenol).
For `CC(=O)c1ccccc1`, the EC50 was 38000 ± 30000 nM (Or2c1; ion current, agonist, two-electrode voltage clamp; Xenopus oocytes; 15 s).
For `NCCc1c[nH]c2ccc(Cl)cc12`, the EC50 was 476 nM and < 500 nM (Slc6a3; dopamine release, releaser; rat brain synaptosomes).
The EC50 of `CCC[C@@H](C)COc1ccc([C@@H](CO)C(=O)N[C@H](C)c2ccccc2)cc1` is reported as 562 nM (G protein-coupled receptor 88 (Homo sapiens, UniProt Q9GZN0); cAMP level, agonist, TR-FRET; CHO overexpressing G protein-coupled receptor 88; together with: forskolin 300 nM).
The EC50 of `COc1ccc2nc(Sc3ncnc4c3nnn4Cc3ccccc3)oc2c1` is reported as 3300 ± 700 nM (NOX5; enzyme activity, Amplex Red; NOX5-overexpressing cells).
`CC[C@@](O)(c1ccccc1)[C@H]1C[C@@]23CC[C@]1(OC)[C@@H]1Oc4c(O)ccc5c4[C@@]12CCN(CC1CC1)[C@@H]3C5` has an EC50 of 18.4 ± 5.7 nM (OPRM1; G-protein activation, agonist; reference: DAMGO).
`COc1ccc2c(CCN)c[nH]c2c1` has an EC50 of 113 nM and < 165 nM (Slc6a3; dopamine release, releaser; rat brain synaptosomes).
With `Cc1ccc2nc(Sc3ncnc4c3nnn4Cc3ccccc3)oc2c1` the EC50 was 7000 ± 4000 nM (NADPH oxidase 4 (NOX4, Homo sapiens, UniProt Q9NPH5); enzyme activity, inhibitor, Amplex Red; cell-free membranes).
The EC50 of `CO[C@]12CC[C@@]3(C[C@@H]1[C@@H](O)c1ccccc1)[C@H]1Cc4ccc(O)c5c4[C@@]3(CCN1CC1CC1)[C@H]2O5` is reported as 1.55 ± 0.28 nM (OPRM1; G-protein activation, agonist; reference: DAMGO).
For `NCCc1c[nH]c2cc(F)ccc12`, the EC50 was 1580 ± 104 nM (Transporter (Slc6a2, Rattus norvegicus, UniProt Q63380); noradrenaline release, releaser; rat brain synaptosomes).
With `CNCCc1c[nH]c2ccccc12` the EC50 was 321 ± 23 nM (Slc6a3; dopamine release, releaser; rat striatal synaptosomes).
`Cc1cccc2nc(Sc3ncnc4c3nnn4Cc3ccccc3)oc12` gave an EC50 of 3100 ± 1000 nM (NOX5; enzyme activity, Amplex Red; NOX5-overexpressing cells).
`CC[C@](O)([C@H]1C[C@@]23C=C[C@]1(OC)[C@@H]1Oc4c(O)ccc5c4[C@@]12CCN(CC1CC1)[C@@H]3C5)C(C)(C)C` has an EC50 of 238 ± 19 nM (OPRM1; G-protein activation, agonist; reference: DAMGO).
The EC50 of `Clc1ccc2nc(Sc3ncnc4c3nnn4Cc3ccccc3)oc2c1` is reported as 1800 ± 700 nM (NOX5; enzyme activity, Amplex Red; NOX5-overexpressing cells).
`CC[C@@](O)(c1ccccc1)[C@H]1C[C@@]23C=C[C@]1(OC)[C@@H]1Oc4c(O)ccc5c4[C@@]12CCN(CC1CC1)[C@@H]3C5` has an EC50 of 31.8 ± 18.5 nM (OPRM1; G-protein activation, agonist; reference: DAMGO).

Repeated from above:
`CCC(N)Cc1c[nH]c2ccc(Cl)cc12` (stereo not drawn) has an EC50 of 33.2 ± 3.6 nM (Slc6a4; serotonin release, releaser; rat brain synaptosomes).
With `CN(C(=O)Cc1ccc(Cl)c(Cl)c1)C1CCC2(CCCO2)CC1N1CCCC1` (stereo not drawn) the EC50 was 12 nM (OPRK1; agonist; human receptor).
For `CC(=O)c1ccccc1`, the EC50 was 38000 ± 30000 nM (Or2c1; ion current, agonist, two-electrode voltage clamp; Xenopus oocytes; 15 s).
`CC[C@@](O)(c1ccccc1)[C@H]1C[C@@]23CC[C@]1(OC)[C@@H]1Oc4c(O)ccc5c4[C@@]12CCN(CC1CC1)[C@@H]3C5` has an EC50 of 18.4 ± 5.7 nM (OPRM1; G-protein activation, agonist; reference: DAMGO).
The EC50 of `COc1ccc2nc(Sc3ncnc4c3nnn4Cc3ccccc3)oc2c1` is reported as 3300 ± 700 nM (NOX5; enzyme activity, Amplex Red; NOX5-overexpressing cells).
